# Assay results of several laboratories.
# Protocols differ between the studies behind these lines. Several values in a cell are separate wells, animals, samples, runs or records.
# TAOK1: Serine/threonine-protein kinase TAO1 (TAOK1, Homo sapiens, UniProt Q7L7X3)
# Chain of UniProt Q7L7X3 (whole entry, looked up): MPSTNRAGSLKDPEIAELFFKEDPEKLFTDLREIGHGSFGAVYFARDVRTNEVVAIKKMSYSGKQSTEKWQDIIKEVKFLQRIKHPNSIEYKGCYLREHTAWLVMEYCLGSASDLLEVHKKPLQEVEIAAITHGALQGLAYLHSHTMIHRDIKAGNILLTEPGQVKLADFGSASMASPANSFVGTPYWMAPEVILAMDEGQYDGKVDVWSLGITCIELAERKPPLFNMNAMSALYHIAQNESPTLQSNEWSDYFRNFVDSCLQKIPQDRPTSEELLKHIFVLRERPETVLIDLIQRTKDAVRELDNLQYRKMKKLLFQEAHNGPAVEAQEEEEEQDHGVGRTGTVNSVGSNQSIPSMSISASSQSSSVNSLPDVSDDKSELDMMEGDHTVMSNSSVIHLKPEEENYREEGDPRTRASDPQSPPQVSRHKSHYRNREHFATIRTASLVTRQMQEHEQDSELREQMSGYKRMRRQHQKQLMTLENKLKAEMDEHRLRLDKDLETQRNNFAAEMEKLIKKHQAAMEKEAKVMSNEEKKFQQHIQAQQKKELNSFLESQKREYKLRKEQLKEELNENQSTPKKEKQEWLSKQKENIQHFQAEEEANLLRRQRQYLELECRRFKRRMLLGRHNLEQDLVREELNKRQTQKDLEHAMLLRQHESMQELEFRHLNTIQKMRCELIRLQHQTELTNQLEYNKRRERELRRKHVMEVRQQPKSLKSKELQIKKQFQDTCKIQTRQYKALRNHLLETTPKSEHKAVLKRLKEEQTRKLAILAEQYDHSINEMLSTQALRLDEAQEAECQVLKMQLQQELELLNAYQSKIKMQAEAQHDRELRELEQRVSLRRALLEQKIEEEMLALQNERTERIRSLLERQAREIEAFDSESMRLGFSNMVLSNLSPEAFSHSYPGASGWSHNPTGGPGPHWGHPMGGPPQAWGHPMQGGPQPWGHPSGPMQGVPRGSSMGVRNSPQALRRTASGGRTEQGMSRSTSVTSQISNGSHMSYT
# CSNK1A1: Casein kinase I isoform alpha (CSNK1A1, Homo sapiens, UniProt P48729)
# Chain of UniProt P48729 (whole entry, looked up): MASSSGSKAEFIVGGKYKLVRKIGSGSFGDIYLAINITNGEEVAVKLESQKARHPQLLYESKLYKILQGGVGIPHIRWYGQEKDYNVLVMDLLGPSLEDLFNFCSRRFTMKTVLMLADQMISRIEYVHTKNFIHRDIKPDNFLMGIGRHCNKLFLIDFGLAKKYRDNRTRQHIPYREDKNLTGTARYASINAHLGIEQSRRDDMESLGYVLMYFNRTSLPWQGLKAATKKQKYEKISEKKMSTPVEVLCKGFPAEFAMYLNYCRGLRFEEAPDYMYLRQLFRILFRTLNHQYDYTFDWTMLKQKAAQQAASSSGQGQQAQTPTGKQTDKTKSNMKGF
# DYRK2: Dual specificity tyrosine-phosphorylation-regulated kinase 2 (DYRK2, Homo sapiens, UniProt Q92630)
# Chain of UniProt Q92630 (whole entry, looked up): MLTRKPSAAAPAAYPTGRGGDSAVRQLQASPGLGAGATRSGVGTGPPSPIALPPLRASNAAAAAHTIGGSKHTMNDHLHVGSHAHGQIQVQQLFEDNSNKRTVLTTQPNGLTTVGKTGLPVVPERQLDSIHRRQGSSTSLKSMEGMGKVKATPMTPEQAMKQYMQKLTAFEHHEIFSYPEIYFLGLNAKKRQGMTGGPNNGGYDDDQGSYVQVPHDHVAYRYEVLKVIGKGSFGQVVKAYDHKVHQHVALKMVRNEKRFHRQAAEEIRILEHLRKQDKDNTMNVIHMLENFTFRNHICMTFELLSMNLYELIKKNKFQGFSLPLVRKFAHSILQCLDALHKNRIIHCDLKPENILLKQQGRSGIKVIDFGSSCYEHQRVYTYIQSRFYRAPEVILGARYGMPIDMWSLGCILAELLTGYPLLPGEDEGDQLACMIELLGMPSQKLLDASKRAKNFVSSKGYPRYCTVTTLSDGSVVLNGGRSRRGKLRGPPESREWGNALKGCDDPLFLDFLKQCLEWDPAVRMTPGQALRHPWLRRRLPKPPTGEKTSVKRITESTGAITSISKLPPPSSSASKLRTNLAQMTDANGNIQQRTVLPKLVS
# KDM4B: Lysine-specific demethylase 4B (KDM4B, Homo sapiens, UniProt O94953)
# Chain of UniProt O94953 (whole entry, looked up): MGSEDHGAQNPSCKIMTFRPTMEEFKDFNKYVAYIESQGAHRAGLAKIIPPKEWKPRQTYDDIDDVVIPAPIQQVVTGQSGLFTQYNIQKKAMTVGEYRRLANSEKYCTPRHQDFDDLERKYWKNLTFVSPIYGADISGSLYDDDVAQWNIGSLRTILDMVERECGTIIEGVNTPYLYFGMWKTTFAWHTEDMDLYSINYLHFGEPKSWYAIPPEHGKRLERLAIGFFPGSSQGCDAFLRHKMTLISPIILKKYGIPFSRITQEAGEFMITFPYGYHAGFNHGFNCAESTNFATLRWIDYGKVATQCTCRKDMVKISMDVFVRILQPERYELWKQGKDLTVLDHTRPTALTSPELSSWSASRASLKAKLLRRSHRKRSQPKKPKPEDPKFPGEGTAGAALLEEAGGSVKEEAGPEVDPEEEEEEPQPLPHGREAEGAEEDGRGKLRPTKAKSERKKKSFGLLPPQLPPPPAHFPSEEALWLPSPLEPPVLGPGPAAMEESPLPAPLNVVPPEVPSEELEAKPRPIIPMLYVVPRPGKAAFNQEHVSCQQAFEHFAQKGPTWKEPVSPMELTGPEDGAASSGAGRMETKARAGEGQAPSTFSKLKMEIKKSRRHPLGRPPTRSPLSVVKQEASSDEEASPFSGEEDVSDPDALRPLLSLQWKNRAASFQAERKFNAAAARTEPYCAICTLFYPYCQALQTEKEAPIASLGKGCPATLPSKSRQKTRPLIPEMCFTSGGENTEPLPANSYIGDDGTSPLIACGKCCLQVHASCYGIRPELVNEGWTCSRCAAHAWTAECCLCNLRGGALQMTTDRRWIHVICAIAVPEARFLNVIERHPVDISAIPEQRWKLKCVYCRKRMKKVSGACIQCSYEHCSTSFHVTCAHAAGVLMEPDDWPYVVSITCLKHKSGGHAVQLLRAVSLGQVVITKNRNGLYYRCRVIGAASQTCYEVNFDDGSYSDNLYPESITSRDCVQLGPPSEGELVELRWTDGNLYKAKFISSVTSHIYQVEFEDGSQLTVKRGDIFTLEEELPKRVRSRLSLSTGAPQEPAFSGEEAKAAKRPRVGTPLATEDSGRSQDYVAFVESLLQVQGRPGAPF
# Chain of UniProt P06213 (whole entry, looked up): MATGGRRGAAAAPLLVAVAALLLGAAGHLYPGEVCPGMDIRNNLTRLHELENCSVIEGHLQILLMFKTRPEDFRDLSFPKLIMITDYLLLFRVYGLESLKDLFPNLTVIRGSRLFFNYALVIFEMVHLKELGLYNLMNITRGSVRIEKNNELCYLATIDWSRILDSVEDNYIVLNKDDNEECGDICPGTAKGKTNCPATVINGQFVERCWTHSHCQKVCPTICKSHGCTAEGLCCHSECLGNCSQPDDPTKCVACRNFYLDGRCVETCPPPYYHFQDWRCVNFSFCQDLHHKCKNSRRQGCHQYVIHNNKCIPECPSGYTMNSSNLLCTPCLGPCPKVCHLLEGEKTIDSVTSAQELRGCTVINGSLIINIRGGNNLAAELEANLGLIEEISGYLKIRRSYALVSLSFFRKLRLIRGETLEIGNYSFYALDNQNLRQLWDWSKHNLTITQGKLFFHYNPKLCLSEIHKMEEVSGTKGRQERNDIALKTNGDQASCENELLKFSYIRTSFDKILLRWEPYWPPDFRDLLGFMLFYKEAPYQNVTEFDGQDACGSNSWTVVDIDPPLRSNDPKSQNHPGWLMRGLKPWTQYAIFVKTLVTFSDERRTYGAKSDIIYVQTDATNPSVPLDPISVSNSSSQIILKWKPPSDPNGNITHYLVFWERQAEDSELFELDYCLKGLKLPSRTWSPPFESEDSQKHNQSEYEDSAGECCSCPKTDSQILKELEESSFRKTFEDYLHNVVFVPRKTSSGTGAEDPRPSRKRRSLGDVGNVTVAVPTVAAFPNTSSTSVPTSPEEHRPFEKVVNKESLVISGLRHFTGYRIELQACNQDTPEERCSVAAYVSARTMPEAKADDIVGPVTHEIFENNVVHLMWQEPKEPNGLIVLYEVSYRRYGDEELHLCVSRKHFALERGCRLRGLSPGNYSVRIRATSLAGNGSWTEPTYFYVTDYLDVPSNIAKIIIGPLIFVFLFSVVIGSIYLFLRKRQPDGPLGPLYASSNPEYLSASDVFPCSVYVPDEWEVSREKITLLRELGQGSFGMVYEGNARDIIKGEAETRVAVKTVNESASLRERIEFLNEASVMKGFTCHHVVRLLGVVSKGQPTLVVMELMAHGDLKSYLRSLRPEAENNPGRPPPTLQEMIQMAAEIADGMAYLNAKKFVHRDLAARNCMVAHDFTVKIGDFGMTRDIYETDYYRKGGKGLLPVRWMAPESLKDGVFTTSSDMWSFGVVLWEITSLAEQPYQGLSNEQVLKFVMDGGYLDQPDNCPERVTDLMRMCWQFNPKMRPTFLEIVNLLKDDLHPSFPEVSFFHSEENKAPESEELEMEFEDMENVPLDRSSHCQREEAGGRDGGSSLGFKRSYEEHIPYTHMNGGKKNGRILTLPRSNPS
# Chain of UniProt O60331 (whole entry, looked up): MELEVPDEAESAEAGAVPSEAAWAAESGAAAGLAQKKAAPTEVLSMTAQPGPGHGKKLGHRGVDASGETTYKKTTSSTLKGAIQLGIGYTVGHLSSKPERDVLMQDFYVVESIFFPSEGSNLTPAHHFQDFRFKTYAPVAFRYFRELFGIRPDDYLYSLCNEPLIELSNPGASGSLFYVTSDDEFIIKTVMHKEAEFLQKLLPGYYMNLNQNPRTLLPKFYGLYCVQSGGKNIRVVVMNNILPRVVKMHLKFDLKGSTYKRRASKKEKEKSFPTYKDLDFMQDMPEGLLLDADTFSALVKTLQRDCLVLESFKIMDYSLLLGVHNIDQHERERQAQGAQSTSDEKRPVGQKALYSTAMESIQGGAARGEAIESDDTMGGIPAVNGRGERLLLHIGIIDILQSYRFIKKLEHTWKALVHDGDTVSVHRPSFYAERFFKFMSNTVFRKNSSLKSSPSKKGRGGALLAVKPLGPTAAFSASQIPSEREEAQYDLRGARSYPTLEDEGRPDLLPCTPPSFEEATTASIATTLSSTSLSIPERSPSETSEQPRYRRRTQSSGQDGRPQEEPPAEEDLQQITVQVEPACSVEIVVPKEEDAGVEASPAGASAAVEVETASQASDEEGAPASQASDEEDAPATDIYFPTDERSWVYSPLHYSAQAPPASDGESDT
SMILES,target or system,test,test system,conditions,how to read,quantity,value
Cn1cc(-c2ccc(-c3cncc(Cl)c3N3CCC4(CCNC4=O)CC3)cc2)cn1,COLO 205,"gene expression, microarray, item: VIL1 mRNA",,"concentration not given, 6 h",relative to: untreated cells,log2 fold change,-1.88
COc1cc(-c2cncc3c2CN(C)Cc2cc(N4CCNCC4)ccc2-3)cc(OC)c1OC,"Insulin receptor, activated (INSR, Homo sapiens, UniProt P06213)",kinase activity,,"1 µM, together with: ATP 10 µM",relative to: DMSO control,remaining activity,116%
Cc1cnc(NC2CCOCC2)nc1-n1cnc(C(=O)NC(CN)c2cc(F)cc(Cl)c2)c1 (stereo not shown),"SRC (Homo sapiens, UniProt P12931)","kinase activity, radiometric",,1 µM,,remaining activity,94%
O=C(O)Cc1c[nH]c2ccccc12,,"binding, MIDAS equilibrium dialysis LC-MS",A2AR-BRIL thermostabilized,concentration not given,relative to: no-protein control,log2 fold change,-0.244
O=C(NC1CCC1)c1ccc2nc(-c3cccc(NS(=O)(=O)NCCN4CCCCC4)c3)cn2c1,TAOK1,enzyme activity,,10 µM,,remaining activity,98%
CN(C)CC#Cc1ccc2[nH]c3c(c2c1)-c1nc(N)ncc1CCC3,TAOK1,"kinase activity, inhibitor, radiometric",,"1 µM, together with: ATP at Km",,remaining activity,72%
Fc1ccc(-c2nn3cc(F)ccc3c2-c2ccncc2)cc1,CSNK1A1,"kinase activity, inhibitor, ADP-Glo",,"0.574 µM, 0.5 h",,remaining activity,56.9% and 48.3%
Cc1cc(Nc2cc(N3CCN(C)CC3)nc(Sc3ccc(NC(=O)C4CC4)cc3)n2)[nH]n1,DYRK2,"kinase activity, KinaseProfiler",,"0.03 µM, species human",relative to: control,remaining activity,103%
O=C(O)c1ccc(Nc2ncc3c(n2)-c2ccc(Cl)cc2C(c2c(F)cccc2F)=NC3)cc1,BrSK2(h),kinase activity,,1 µM,,remaining activity,99%
O=C(O)CCn1sc2ccccc2c1=O,"Ubiquitin carboxyl-terminal hydrolase 16, ZnF-UBD domain (USP16, Homo sapiens, UniProt Q9Y5T5)",,,,,Kd,> 1 mM
N[C@@H]1CC[C@@H](c2ccc(Cl)c(Cl)c2)c2ccccc21,"SLC6A3 (Homo sapiens, UniProt Q01959, F326A)",dopamine uptake,,"0.003 µM, 0.03333 h, F326A mutant, together with: [3H]dopamine",relative to: no inhibitor,remaining activity,82.3%
CC(C)Oc1cc(N2CCN(C)CC2)ccc1Nc1nc(N)n(C(=O)NCc2ccccc2S(=O)(=O)C(C)C)n1,"Insulin receptor (INSR, Homo sapiens, UniProt P06213)",enzyme activity,,10 µM,relative to: control,remaining activity,4%
CNc1ncc2c(/C=C/C(=O)N3CCC(OC)CC3)nn(Cc3cccc(C(F)(F)F)c3)c2n1,"MARK3 (Homo sapiens, UniProt P27448)","kinase activity, inhibitor",,1 µM,relative to: untreated control,remaining activity,104%
C1=C/COCc2cc(ccc2OCCN2CCCC2)Nc2nccc(n2)-c2cccc(c2)COC/1,"EGFR (Homo sapiens, UniProt P00533, L858R)",,,concentration not given,relative to: untreated control,remaining activity,71%
COc1cc(N2CCN(C)CC2)ccc1Nc1nc(N)n(C(=O)NCc2ccccc2S(=O)(=O)C(C)C)n1,"STK17B (Homo sapiens, UniProt O94768)",enzyme activity,,10 µM,relative to: control,remaining activity,1.6%
C/C(=N/Nc1ccc([N+](=O)[O-])cc1[N+](=O)[O-])c1ccccc1,KDM4B,,,concentration not given,,remaining activity,52%
C=CC(=O)N1CCC[C@@H](n2nc(-c3ccc(Oc4ccccc4)cc3)c3c(N)ncnc32)C1,DYRK2,,,0.1 µM,,remaining activity,97.3%
O=C1NC(=O)/C(=C/c2ccc(-c3ccc(F)cc3O)o2)S1,DYRK2,enzyme activity,,10 µM,,remaining activity,20%
Fc1ccc(-c2nc3cc(F)ccn3c2-c2ccncc2)cc1,CSNK1A1,"kinase activity, ADP-Glo",,1.176 µM,relative to: untreated,remaining activity,25.9%
COc1cc(Nc2ncc3c(n2)-c2ccc(Cl)cc2C(c2c(F)cccc2OC)=NC3)ccc1C(=O)O,SGK2,kinase activity,,1 µM,,remaining activity,107%
C[C@@H](Oc1ccc(S(C)(=O)=O)cc1C(=O)N1C[C@@H]2C[C@]2(c2cc(C(F)(F)F)on2)C1)C(F)(F)F,"SLC6A9 (Homo sapiens, UniProt P48067, G373S)","glycine uptake, inhibitor, [3H]glycine uptake",,"0.002 µM, G319S mutant, log concentration 2, together with: [3H]glycine",relative to: no inhibitor,remaining activity,91.7%
CC(C)OCCn1c(=S)[nH]c(=O)c2[nH]ccc21,"Myeloperoxidase (MPO, Homo sapiens, UniProt P05164)","LDL lipid peroxidation, inhibitor, cholesteryl ester hydroperoxide",,0.0046 µM,,remaining activity,106%
O=C(Nc1ccc(F)c(Br)c1)c1ccc2c(c1)C(=O)NC2=O,"MAOB (Homo sapiens, UniProt P27338)",inhibitor,,"4 × IC50, after dialysis",relative to: control,remaining activity,86.2%
Cc1cn([C@H]2C[C@H](O)[C@@H](COP(=O)(O)OP(=O)(O)OP(=O)(O)O)O2)c(=O)[nH]c1=O,,"binding, MIDAS equilibrium dialysis LC-MS",A2AR-BRIL thermostabilized,concentration not given,relative to: no-protein control,log2 fold change,-0.986
O=C(O)c1cc(N=Cc2ccccc2O)cc(C(=O)O)c1,KDM4B,,,concentration not given,,remaining activity,62%
CC(C)C(=O)Nc1n[nH]c2cc(-c3cccc(NS(=O)(=O)C4CC4)c3)ccc12,"PIP5K1C (Homo sapiens, UniProt O60331)",ADP-Glo,,3.33 µM,relative to: DMSO,remaining activity,52%
COc1cc(N2CCN(C)CC2)ccc1Nc1nc(N)n(C(=S)NCc2c(Cl)cccc2Cl)n1,DYRK2,enzyme activity,,10 µM,relative to: control,remaining activity,17%
COc1cc(F)ccc1-c1ncnc(Nc2cccc(C[S@](C)(=N)=O)c2)n1,"PRKCD (Homo sapiens, UniProt Q05655)",kinase activity,,"10 µM, together with: 10 µM ATP",,remaining activity,96%
